Measurements pooled from the literature.
Each line is one published result; not all experiments were run side by side. Several values in a cell are separate wells, animals, samples, runs or records. ± gives the spread as reported.

`Cc1[nH]c(/C=C2\C(=O)Nc3ccccc32)c(C)c1CCC(=O)O` has a Tmax of 3.83 ± 1.44 h (human patients; oral, 400 mg/m^2 three times daily, after meal, dose 82).
`CC(C)[C@H](N)C(=O)NCCCS(=O)(=O)O` has a Tmax of 0.944 ± 0.388 h (human, plasma; oral, 340 mg capsule, day 14, fed, multiple dosing).
`Cc1nc(Nc2ncc(C(=O)Nc3c(C)cccc3Cl)s2)cc(N2CCN(CCO)CC2)n1` has a Tmax of 1.2 h (human, plasma; oral, 100 mg, without omeprazole, median, range 0.5 to 3 h).
`COC(=O)c1ccc2c(c1)NC(=O)/C2=C(\Nc1ccc(N(C)C(=O)CN2CCN(C)CC2)cc1)c1ccccc1` has a Tmax of 4 h (human, moderate liver impairment, plasma; oral, 200 mg twice daily, steady state).
With `N[C@]1(C(=O)O)[C@H]2[C@@H](C[C@@H]1F)[C@@H]2C(=O)O` the Tmax was 3 h (human, both sexes, fed, plasma; oral, 60 mg, day 14, multiple ascending dose).
`O=C(Nc1c(Cl)cncc1Cl)c1ccc(OC(F)F)c(OCC2CC2)c1` gave a Tmax of 11.3 h (human adults, ≥18 years, plasma; topical, 0.3% cream once daily, day 15).
With `NC(=O)N1CCC(CC(=O)N2CCC([C@H]3c4ncc(Br)cc4CCc4cc(Cl)cc(Br)c43)CC2)CC1` the Tmax was 6 h (human, plasma; oral, 200 mg twice daily, cycle 1 day 15, multiple dose, median, together with: gemcitabine 600 mg/m2).
The Tmax of `COc1ccnc(C[S+]([O-])c2nc3ccc(OC(F)F)cc3[nH]2)c1OC` (centres unmarked) is reported as 2 h (HPLC; human CYP2C19 ultra-rapid metabolizers, plasma; oral, 40 mg/day, day 1, esomeprazole).
With `C#Cc1cccc(Nc2ncnc3cc(OCCOC)c(OCCOC)cc23)c1` the Tmax was 3 h (human, plasma; oral, day 29, median, together with: dovitinib).
The Tmax of `Nc1ncc(-c2cnn(CCO)c2)c2scc(-c3ccc(NC(=O)Nc4cccc(F)c4)cc3)c12` is reported as 3.1 ± 0.9 h (human patients, plasma; oral, all doses pooled, first dose).
The Tmax of `N[C@@H](Cc1ccc(O)c(O)c1)C(=O)O` is reported as 0.167 h and 0.25 h (dry-powder inhaler; human, plasma; inhalation, 60 mg).
For `COCCCCn1c(C(=O)N(CC(C)C)[C@@H]2CNC[C@H](C(=O)N3CCOCC3)C2)nc2ccccc21`, the Tmax was 2 h (non-elderly human, plasma; oral, 80 mg once daily, day 7).
`C#C[C@]1(O)CC[C@H]2[C@@H]3CCc4cc(O)ccc4[C@H]3CC[C@@]21C` gave a Tmax of 3 h (human female; day 1, oral contraceptive alone, median).
With `Platinum` the Tmax was 2 h (ICP-MS, refers to: total platinum; human, plasma; cisplatin, cycle 2 day 1, median, together with: regorafenib 21 days).
For `CON(C)C(=O)N1N=C(c2cc(F)ccc2F)S[C@@]1(CCCN)c1ccccc1`, the Tmax was 1 h (human; intravenous, 1.2 mg/m^2, cycle 1 day 3, median).
With `CNC(=O)c1c(C)oc2cc(Oc3ncnc4cc(OC)c(OC)cc34)ccc12` the Tmax was 3.5 h (human, plasma; oral, 5 mg, fasted, together with: rabeprazole 40 mg).
With `C=C(C)[C@@H]1CC[C@]2(NCCN3CCS(=O)(=O)CC3)CC[C@]3(C)[C@H](CC[C@@H]4[C@@]5(C)CC=C(C6=CC[C@@](CF)(C(=O)O)CC6)C(C)(C)[C@@H]5CC[C@]43C)[C@@H]12` the Tmax was 2.93 to 5.53 h (human, HIV-1 treatment-naive, plasma; oral, 10 to 200 mg single, day 1).
With `N#CCNC(=O)c1ccc(-c2ccnc(Nc3ccc(N4CCOCC4=O)cc3)n2)cc1` the Tmax was 2 h (human, plasma; oral, 200 mg momelotinib once daily, cycle 1 day 15, median, together with: trametinib 1.0 mg once daily).
`C=CC(=O)N1CCC([C@@H]2CCNc3c(C(N)=O)c(-c4ccc(Oc5ccccc5)cc4)nn32)CC1` has a Tmax of 2.8 h (human; oral, 480 mg single dose, median).
With `O=C(Cc1cccc(OC(F)(F)F)c1)Nc1ccc(CCCCc2nnc(NC(=O)Cc3ccccn3)s2)nn1` the Tmax was 2 h (human patients, plasma; oral, 250 mg three times daily fasted, cycle 1 day 15 steady state).
`C#C[C@]1(COP(=O)(O)OP(=O)(O)OP(=O)(O)O)O[C@@H](n2cnc3c(N)nc(F)nc32)C[C@@H]1O` gave a Tmax of 6 to 48 h (healthy humans, fasted, PBMC intracellular; oral, dose not given, individual range, rising single doses).
`O=C(CCCCCCC(=O)Nc1ccccc1)NO` gave a Tmax of 2.3 h (human patients, serum; oral, 600 mg twice daily).
With `C=C(C)[C@@H]1CC[C@]2(NCCN3CCS(=O)(=O)CC3)CC[C@]3(C)[C@H](CC[C@@H]4[C@@]5(C)CC=C(C6=CC[C@@](CF)(C(=O)O)CC6)C(C)(C)[C@@H]5CC[C@]43C)[C@@H]12` the Tmax was 3.5 to 4 h (human, plasma; oral, dose not given).
`CN1C(=O)[C@@H](NC(=O)c2nnc(Cc3ccccc3)[nH]2)COc2ccccc21` gave a Tmax of 1.5 h (human male, plasma; oral, 60 mg twice daily, day 14).
With `CN[C@@H]1COc2c(S(=O)(=O)NC(=O)Nc3c4c(cc5c3CCC5)CCC4)cnn2C1` the Tmax was 2 h (human; oral, 600 mg, fasted, median).
With `Cc1ccc(NC(=O)c2ccc(CN3CCN(C)CC3)cc2)cc1Nc1nccc(-c2cncc(-c3oncc3C)c2)n1` the Tmax was 5.97 h (older healthy human adults, plasma; oral, 25.0 mg single dose, fed, mean).
For `COC(=O)c1ccc2c(c1)NC(=O)/C2=C(\Nc1ccc(N(C)C(=O)CN2CCN(C)CC2)cc1)c1ccccc1`, the Tmax was 3.5 h (human, hepatic impairment Child-Pugh B, plasma; oral, 100 mg single dose, median).
With `C[C@H](N)C(=O)N1C[C@H](CCCB(O)O)[C@](N)(C(=O)O)C1` the Tmax was 2 to 4 h (human, plasma; oral, dose not given, multiple dosing).
For `CCCC[C@H](NC(C)=O)C(=O)N[C@H]1CC(=O)NCCCC[C@@H](C(=O)O)NC(=O)[C@H](Cc2c[nH]c3ccccc23)NC(=O)[C@H](CCCN=C(N)N)NC(=O)[C@@H](Cc2ccccc2)NC(=O)[C@H](Cc2cnc[nH]2)NC1=O`, the Tmax was 0.52 h (human, plasma; subcutaneous, 0.75 mg, second dose).
For `Cc1cnc(N2CC3(CCOCC3)C2)c(C(=O)Nc2ccc(C(=O)N3CCc4cc(C(=O)Nc5c(C)cccc5F)sc4-c4ccccc43)cc2)c1`, the Tmax was 0.5 h (human, plasma; inhaled nebulised, 5 mg twice daily repeated, median).
The Tmax of `CS(=O)(=O)n1cc2c(n1)CN([C@H]1CO[C@H](c3cc(F)ccc3F)[C@@H](N)C1)C2` is reported as 3 h (healthy male human, plasma; oral, 10 mg once weekly, day 1, fasted, median).
`COc1cc(Nc2ncc3c(n2)-c2ccc(Cl)cc2C(c2c(F)cccc2OC)=NC3)ccc1C(=O)O` has a Tmax of 10.6 ± 9.5 h (human, phase I; oral, 40 mg single dose).
The Tmax of `CS(=O)(=O)CCNCc1ccc(-c2ccc3ncnc(Nc4ccc(OCc5cccc(F)c5)c(Cl)c4)c3c2)o1` is reported as 3.5 h (human, plasma; oral, multiple dose).
`CCCNS(=O)(=O)Nc1ncnc(OCCOc2ncc(Br)cn2)c1-c1ccc(Br)cc1` gave a Tmax of at most 48 h (healthy male humans, plasma; 300 mg, some subjects).
For `CC(C)NC[C@@H](C(=O)N1CCN(c2ncnc3c2[C@H](C)C[C@H]3O)CC1)c1ccc(Cl)cc1`, the Tmax was 1 h (human, Healthy hepatic function (Child-Pugh), plasma; oral, 100 mg single dose, median).
`O=C(CCCCCCC(=O)Nc1ccccc1)NO` gave a Tmax of 3.4 h (human patients, serum; oral, 100 mg twice daily, day 5, together with: FOLFOX).
`C#C[C@]1(CO)O[C@@H](n2cnc3c(N)nc(F)nc32)C[C@@H]1O` has a Tmax of 0.5 h (human, plasma; oral, 2.25 mg once daily, median, together with: doravirine 100 mg once daily).
The Tmax of `COc1ccc2nc([S@@+]([O-])Cc3ncc(C)c(OC)c3C)[nH]c2c1` is reported as 1.44 ± 1.21 h (HPLC; human CYP2C19 intermediate metabolizers, plasma; oral, 40 mg/day, day 5, pantoprazole).
